{"data": "Results of several laboratories", "note": "Parts stem from different laboratories: compare values within a part only. Values joined by “and” are separate records of one study, mostly repeats; a detail may differ.", "sequence of UniProt Q8N568 (whole entry, looked up)": "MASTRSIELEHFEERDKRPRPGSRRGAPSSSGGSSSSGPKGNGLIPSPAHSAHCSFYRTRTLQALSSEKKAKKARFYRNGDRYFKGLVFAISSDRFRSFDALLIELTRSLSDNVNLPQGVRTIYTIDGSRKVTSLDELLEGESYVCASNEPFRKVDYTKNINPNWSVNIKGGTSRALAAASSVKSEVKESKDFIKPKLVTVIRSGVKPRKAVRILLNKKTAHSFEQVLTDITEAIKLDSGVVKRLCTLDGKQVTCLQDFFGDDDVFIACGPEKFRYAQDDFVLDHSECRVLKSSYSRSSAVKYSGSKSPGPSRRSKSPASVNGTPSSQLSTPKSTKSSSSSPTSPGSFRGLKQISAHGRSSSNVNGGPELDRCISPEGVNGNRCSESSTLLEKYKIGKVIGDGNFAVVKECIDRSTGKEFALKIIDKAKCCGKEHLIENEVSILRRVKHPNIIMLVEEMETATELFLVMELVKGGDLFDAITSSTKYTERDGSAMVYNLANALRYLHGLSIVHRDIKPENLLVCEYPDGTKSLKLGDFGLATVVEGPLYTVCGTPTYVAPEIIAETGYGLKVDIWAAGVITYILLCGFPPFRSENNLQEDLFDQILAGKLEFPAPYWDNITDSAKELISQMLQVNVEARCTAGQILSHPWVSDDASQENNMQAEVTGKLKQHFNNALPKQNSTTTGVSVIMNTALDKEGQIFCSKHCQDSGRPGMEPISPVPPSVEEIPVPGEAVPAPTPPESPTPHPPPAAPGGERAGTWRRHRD", "sequence of UniProt P10721 (whole entry, unmodified, looked up)": "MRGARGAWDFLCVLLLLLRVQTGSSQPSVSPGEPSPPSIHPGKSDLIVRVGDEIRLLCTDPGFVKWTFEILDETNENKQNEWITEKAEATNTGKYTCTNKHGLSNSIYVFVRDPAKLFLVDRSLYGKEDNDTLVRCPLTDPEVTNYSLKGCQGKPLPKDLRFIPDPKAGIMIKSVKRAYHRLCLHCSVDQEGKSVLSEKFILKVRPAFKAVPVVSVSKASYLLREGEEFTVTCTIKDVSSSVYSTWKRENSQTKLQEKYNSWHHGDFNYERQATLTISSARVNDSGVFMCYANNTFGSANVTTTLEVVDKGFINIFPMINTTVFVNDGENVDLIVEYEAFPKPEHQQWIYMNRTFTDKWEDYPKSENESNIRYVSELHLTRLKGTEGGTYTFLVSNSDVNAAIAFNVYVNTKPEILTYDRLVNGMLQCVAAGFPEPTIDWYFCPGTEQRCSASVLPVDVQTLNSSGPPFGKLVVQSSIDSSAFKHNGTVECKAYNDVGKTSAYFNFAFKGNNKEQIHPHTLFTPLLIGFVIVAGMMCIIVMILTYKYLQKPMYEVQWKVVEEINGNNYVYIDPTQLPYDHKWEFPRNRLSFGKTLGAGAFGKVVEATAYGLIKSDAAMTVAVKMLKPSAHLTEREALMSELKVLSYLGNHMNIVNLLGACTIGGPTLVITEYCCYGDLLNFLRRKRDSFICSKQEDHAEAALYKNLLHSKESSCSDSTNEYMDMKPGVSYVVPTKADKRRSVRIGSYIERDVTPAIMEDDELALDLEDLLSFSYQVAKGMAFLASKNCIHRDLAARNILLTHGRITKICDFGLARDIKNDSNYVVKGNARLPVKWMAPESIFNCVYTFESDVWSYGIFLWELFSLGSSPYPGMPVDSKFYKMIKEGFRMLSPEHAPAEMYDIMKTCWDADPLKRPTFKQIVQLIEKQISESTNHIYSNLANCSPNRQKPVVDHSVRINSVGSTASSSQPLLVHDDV", "sequence of UniProt O43293 (whole entry, looked up)": "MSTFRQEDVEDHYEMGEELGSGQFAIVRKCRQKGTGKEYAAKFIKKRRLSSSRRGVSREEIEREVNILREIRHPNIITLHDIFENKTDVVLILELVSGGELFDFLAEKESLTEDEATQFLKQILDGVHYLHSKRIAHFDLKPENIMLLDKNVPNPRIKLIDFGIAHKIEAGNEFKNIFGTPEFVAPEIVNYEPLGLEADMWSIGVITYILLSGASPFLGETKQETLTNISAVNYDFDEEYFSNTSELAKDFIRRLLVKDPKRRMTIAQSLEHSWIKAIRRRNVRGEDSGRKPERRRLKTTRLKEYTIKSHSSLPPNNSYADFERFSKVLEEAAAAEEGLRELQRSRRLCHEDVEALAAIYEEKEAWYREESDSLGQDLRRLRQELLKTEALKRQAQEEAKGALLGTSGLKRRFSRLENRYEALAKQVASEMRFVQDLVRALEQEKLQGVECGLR", "sequence of UniProt Q96GD4 (whole entry, looked up)": "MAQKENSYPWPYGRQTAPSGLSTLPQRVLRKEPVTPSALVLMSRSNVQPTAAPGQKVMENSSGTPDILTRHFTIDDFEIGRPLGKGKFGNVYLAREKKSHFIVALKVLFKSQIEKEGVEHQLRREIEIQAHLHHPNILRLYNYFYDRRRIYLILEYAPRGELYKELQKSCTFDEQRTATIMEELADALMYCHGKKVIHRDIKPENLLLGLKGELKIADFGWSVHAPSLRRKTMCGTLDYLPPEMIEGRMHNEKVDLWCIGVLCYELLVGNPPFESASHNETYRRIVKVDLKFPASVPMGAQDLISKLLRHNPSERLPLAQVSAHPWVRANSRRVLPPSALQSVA"}
{"data": "Series 1", "SMILES": "O=C(Nc1cnn(-c2csc(C(=O)NC3COC3)c2)c1)Nc1c(F)cccc1Cl", "read-out": "enzyme activity", "concentration": "5 µM"}
{"target": "Bone morphogenetic protein receptor type-1B (BMPR1B, Homo sapiens, UniProt O00238)", "action": "inhibitor", "remaining activity [%]": 114}
{"target": "Receptor-interacting serine/threonine-protein kinase 2 (RIPK2, Homo sapiens, UniProt O43353)", "baseline": "untreated control", "remaining activity [%]": 75.7}
{"target": "Serine/threonine-protein kinase DCLK2 (DCLK2, Homo sapiens, UniProt Q8N568)", "baseline": "untreated control", "remaining activity [%]": 92}
{"target": "Inhibitor of nuclear factor kappa-B kinase subunit epsilon (IKBKE, Homo sapiens, UniProt Q14164)", "baseline": "untreated control", "remaining activity [%]": 95}
{"target": "Ephrin type-A receptor 6 (EPHA6, Homo sapiens, UniProt Q9UF33)", "action": "inhibitor", "remaining activity [%]": 95.7}
{"target": "Serine/threonine-protein kinase DCLK1 (DCLK1, Homo sapiens, UniProt O15075)", "baseline": "untreated control", "remaining activity [%]": 83.3}
{"target": "Misshapen-like kinase 1 (MINK1, Homo sapiens, UniProt Q8N4C8)", "baseline": "untreated control", "remaining activity [%]": 57.8}
{"target": "Mast/stem cell growth factor receptor Kit (KIT, Homo sapiens, UniProt P10721)", "baseline": "untreated control", "remaining activity [%]": 93.9}
{"data": "Series 2", "SMILES": "CC(C)n1cnc(-c2ccc(F)cc2)c1-c1ncc(C(=O)Nc2ccc(N3CCN(C)CC3)cc2)[nH]1", "method": "phase 2a clinical trial", "host": "patients with idiopathic pulmonary fibrosis"}
{"dose": "30 mg once daily", "with": "standard of care", "patients with treatment-related adverse events [%]": 45.5}
{"dose": "30 mg once daily", "notes": "without standard of care", "patients with treatment-related adverse events [%]": 57.1}
{"dose": "60 mg once daily", "notes": "without standard of care", "patients with treatment-related adverse events [%]": 85.7}
{"data": "Series 3", "host": "mouse", "matrix": "microsomes or S9", "concentration": "2 µM", "time": "0.5 h"}
{"Compound": "N#Cc1cccn2cc(-c3cccc(Br)c3)nc12", "remaining compound [%]": 36.9}
{"Compound": "CCOC(=O)C1CCN(c2nc(-c3ccc(S(C)(=O)=O)cc3)ncc2OC)CC1", "remaining compound [%]": 1.84}
{"Compound": "C[C@H](Nc1ncnc2[nH]cnc12)c1cc2ccccc2nc1-c1ccccc1", "remaining compound [%]": 31.8}
{"Compound": "O=c1ccccn1Cc1nc2cc(Cl)ccc2n1CCO", "remaining compound [%]": 88.6}
{"Compound": "CCn1nc(N2CCCC(NC(=O)c3cn[nH]c3)C2)ccc1=O (centres unmarked)", "remaining compound [%]": 48.1}
{"Compound": "Clc1ccc(-c2nc3cnc4ccccc4c3s2)cc1", "remaining compound [%]": 0.511}
{"Compound": "C=C(C)[C@@H]1CCC2=CC(=O)C[C@@H](C)[C@]2(C)C1", "remaining compound [%]": 10.9}
{"data": "Series 4", "target": "DNA polymerase theta, ATPase domain (POLQ, Homo sapiens, UniProt O75417)", "read-out": "enzyme activity", "action": "inhibitor", "concentration": "77 µM", "baseline": "untreated", "sequence of UniProt O75417 (whole entry, unmodified, looked up)": "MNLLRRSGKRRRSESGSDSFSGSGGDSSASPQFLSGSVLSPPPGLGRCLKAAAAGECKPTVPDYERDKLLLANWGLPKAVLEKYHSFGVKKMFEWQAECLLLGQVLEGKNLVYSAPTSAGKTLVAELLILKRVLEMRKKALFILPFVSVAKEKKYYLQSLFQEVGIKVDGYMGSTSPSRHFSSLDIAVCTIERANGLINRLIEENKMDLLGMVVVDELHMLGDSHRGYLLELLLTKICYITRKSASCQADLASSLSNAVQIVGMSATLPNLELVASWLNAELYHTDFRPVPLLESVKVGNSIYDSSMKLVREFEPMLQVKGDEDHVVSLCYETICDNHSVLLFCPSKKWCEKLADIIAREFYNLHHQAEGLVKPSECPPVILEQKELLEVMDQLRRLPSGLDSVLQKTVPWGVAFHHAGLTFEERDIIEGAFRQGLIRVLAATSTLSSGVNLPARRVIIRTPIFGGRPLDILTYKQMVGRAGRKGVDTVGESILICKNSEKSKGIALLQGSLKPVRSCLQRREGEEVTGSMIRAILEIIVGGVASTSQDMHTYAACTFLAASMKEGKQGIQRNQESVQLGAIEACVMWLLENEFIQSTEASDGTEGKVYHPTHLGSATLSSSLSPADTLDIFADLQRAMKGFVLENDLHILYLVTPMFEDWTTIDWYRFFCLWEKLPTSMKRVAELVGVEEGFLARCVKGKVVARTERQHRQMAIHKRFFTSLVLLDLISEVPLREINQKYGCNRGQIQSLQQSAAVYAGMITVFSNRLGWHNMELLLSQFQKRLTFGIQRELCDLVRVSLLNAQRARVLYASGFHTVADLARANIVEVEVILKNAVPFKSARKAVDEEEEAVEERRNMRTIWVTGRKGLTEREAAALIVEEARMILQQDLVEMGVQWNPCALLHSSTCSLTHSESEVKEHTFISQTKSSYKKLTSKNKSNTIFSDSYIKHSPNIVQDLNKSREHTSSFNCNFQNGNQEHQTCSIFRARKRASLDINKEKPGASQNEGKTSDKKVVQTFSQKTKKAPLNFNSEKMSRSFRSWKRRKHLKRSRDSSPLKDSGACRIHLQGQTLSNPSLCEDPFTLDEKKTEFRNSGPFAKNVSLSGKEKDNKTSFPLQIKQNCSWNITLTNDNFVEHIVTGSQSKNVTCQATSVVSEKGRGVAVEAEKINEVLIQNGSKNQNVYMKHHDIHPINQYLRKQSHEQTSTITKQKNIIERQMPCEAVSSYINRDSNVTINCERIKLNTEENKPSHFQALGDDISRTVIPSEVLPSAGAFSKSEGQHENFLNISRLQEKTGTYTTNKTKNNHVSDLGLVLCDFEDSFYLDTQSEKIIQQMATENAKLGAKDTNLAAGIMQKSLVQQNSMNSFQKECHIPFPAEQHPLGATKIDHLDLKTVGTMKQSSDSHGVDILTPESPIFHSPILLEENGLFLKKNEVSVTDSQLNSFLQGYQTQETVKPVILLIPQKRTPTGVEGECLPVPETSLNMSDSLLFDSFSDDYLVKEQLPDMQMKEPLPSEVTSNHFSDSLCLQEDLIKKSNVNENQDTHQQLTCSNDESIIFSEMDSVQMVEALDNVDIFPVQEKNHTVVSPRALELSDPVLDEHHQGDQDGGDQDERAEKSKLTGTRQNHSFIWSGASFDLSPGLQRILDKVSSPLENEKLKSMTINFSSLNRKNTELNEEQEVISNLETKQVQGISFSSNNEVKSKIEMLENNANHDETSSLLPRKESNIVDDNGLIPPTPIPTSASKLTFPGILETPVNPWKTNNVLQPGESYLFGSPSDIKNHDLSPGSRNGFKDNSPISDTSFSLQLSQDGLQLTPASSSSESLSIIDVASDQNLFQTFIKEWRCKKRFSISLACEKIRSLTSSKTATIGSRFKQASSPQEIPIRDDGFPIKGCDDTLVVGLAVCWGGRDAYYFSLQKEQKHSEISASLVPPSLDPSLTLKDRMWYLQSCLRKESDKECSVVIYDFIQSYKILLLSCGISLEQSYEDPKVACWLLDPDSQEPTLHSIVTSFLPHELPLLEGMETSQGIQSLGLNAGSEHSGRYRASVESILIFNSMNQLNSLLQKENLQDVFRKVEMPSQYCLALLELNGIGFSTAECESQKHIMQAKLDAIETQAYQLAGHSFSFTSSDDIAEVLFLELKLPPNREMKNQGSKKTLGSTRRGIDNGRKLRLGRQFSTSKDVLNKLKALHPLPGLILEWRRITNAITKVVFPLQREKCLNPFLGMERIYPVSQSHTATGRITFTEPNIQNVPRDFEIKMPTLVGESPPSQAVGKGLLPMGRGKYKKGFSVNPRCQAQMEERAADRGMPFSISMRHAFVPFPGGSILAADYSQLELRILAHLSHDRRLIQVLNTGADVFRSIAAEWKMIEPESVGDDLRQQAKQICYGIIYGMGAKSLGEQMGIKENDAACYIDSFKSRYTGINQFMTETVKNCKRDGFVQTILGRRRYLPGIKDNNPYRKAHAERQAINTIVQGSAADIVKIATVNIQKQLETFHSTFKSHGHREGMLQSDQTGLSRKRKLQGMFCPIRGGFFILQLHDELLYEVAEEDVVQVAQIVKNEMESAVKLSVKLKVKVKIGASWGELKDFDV"}
{"SMILES": "Cc1ccc(Sc2ccccc2N2CCNCC2)c(C)c1", "remaining activity": "106%"}
{"SMILES": "COc1ccc(COc2cc3oc(=O)c4cc(C(C)O)ccc4c3cc2OC)cc1 (centres unmarked)", "remaining activity": "98.4%"}
{"SMILES": "CCN(CC)CCOC(=O)C(c1ccccc1)C1CCCCC1 (centres unmarked)", "remaining activity": "101%"}
{"SMILES": "COc1ccc(/C=C/C(=O)Nc2ccccc2C(=O)O)cc1OC", "remaining activity": "88% and 96.8%"}
{"SMILES": "C=C(c1ccc(C(=O)O)cc1)c1cc2c(cc1C)C(C)(C)CCC2(C)C", "remaining activity": "159%"}
{"SMILES": "CCc1cccc(CC)c1NC(=O)N1Cc2[nH]nc(NC(=O)c3ccc(N4CCN(C)CC4)cc3)c2C1", "remaining activity": "102%"}
{"SMILES": "NC(=NCCCCCCN=C(N)/N=C(\\N)Nc1ccc(Cl)cc1)/N=C(\\N)Nc1ccc(Cl)cc1", "remaining activity": "132% and 101%"}
{"data": "Series 5", "SMILES": "CC(=O)N1CCC(c2ccc(C(=O)NC(=N)N)cc2C(F)(F)F)CC1", "method": "competition with immobilised ligand", "concentration": "1 µM"}
{"target": "Serine/threonine-protein kinase VRK2 (VRK2, Homo sapiens, UniProt Q86Y07)", "read-out": "cell-free assay", "remaining binding [%]": 100}
{"target": "Cyclin-dependent kinase 11A (CDK11A, Homo sapiens, UniProt Q9UQ88)", "read-out": "binding", "remaining binding [%]": 92}
{"target": "Serine/threonine-protein kinase TNNI3K (TNNI3K, Homo sapiens, UniProt Q59H18)", "read-out": "cell-free assay", "remaining binding [%]": 100}
{"target": "Phosphatidylinositol 5-phosphate 4-kinase type-2 beta (PIP4K2B, Homo sapiens, UniProt P78356)", "read-out": "cell-free assay", "remaining binding [%]": 77}
{"target": "Cyclin-dependent kinase 14 (CDK14, Homo sapiens, UniProt O94921)", "read-out": "cell-free assay", "remaining binding [%]": 100}
{"target": "Aurora kinase B (AURKB, Homo sapiens, UniProt Q96GD4)", "read-out": "cell-free assay", "remaining binding [%]": 100}
{"target": "Mast/stem cell growth factor receptor Kit (KIT, Homo sapiens, UniProt P10721, D816H)", "read-out": "cell-free assay", "remaining binding [%]": 100}
{"target": "Interleukin-1 receptor-associated kinase 3 (IRAK3, Homo sapiens, UniProt Q9Y616)", "read-out": "cell-free assay", "remaining binding [%]": 99}
{"target": "Serine/threonine-protein kinase PAK 1 (PAK1, Homo sapiens, UniProt Q13153)", "read-out": "cell-free assay", "remaining binding [%]": 100}
{"target": "Vascular endothelial growth factor receptor 1 (FLT1, Homo sapiens, UniProt P17948)", "read-out": "cell-free assay", "remaining binding [%]": 100}
{"target": "Tyrosine-protein kinase ABL2 (ABL2, Homo sapiens, UniProt P42684)", "read-out": "cell-free assay", "remaining binding [%]": 100}
{"target": "Dual serine/threonine and tyrosine protein kinase (DSTYK, Homo sapiens, UniProt Q6XUX3)", "read-out": "cell-free assay", "remaining binding [%]": 94}
{"target": "Macrophage colony-stimulating factor 1 receptor, autoinhibited (CSF1R, Homo sapiens, UniProt P07333)", "read-out": "cell-free assay", "remaining binding [%]": 85}
{"target": "Ephrin type-B receptor 2 (EPHB2, Homo sapiens, UniProt P29323)", "read-out": "cell-free assay", "remaining binding [%]": 100}
{"target": "ALK tyrosine kinase receptor (ALK, Homo sapiens, UniProt Q9UM73, C1156Y)", "read-out": "cell-free assay", "remaining binding [%]": 100}
{"target": "cAMP-dependent protein kinase catalytic subunit PRKX (PRKX, Homo sapiens, UniProt P51817)", "read-out": "cell-free assay", "remaining binding [%]": 100}
{"target": "Tyrosine-protein kinase ABL1, phosphorylated (ABL1, Homo sapiens, UniProt P00519, Y253F)", "read-out": "cell-free assay", "remaining binding [%]": 92}
{"target": "Epidermal growth factor receptor (EGFR, Homo sapiens, UniProt P00533, L858R/T790M)", "read-out": "cell-free assay", "remaining binding [%]": 100}
{"target": "Tyrosine-protein kinase Lyn (LYN, Homo sapiens, UniProt P07948)", "read-out": "cell-free assay", "remaining binding [%]": 100}
{"target": "Discoidin domain-containing receptor 2 (DDR2, Homo sapiens, UniProt Q16832)", "read-out": "cell-free assay", "remaining binding [%]": 100}
{"target": "Serine/threonine-protein kinase DCLK2 (DCLK2, Homo sapiens, UniProt Q8N568)", "read-out": "cell-free assay", "remaining binding [%]": 93}
{"target": "Vascular endothelial growth factor receptor 2 (KDR, Homo sapiens, UniProt P35968)", "read-out": "cell-free assay", "remaining binding [%]": 93}
{"target": "Death-associated protein kinase 3 (DAPK3, Homo sapiens, UniProt O43293)", "read-out": "cell-free assay", "remaining binding [%]": 100}
{"target": "Serine/threonine-protein kinase 32A (STK32A, Homo sapiens, UniProt Q8WU08)", "read-out": "cell-free assay", "remaining binding [%]": 100}
{"target": "Cyclin-dependent kinase 2 (CDK2, Homo sapiens, UniProt P24941)", "read-out": "cell-free assay", "remaining binding [%]": 100}
{"note": "Some of these lines once more (series 5):"}
{"target": "Vascular endothelial growth factor receptor 1 (FLT1, Homo sapiens, UniProt P17948)", "read-out": "cell-free assay", "remaining binding [%]": 100}
{"target": "Interleukin-1 receptor-associated kinase 3 (IRAK3, Homo sapiens, UniProt Q9Y616)", "read-out": "cell-free assay", "remaining binding [%]": 99}
{"target": "Macrophage colony-stimulating factor 1 receptor, autoinhibited (CSF1R, Homo sapiens, UniProt P07333)", "read-out": "cell-free assay", "remaining binding [%]": 85}
{"target": "Phosphatidylinositol 5-phosphate 4-kinase type-2 beta (PIP4K2B, Homo sapiens, UniProt P78356)", "read-out": "cell-free assay", "remaining binding [%]": 77}
{"target": "Cyclin-dependent kinase 14 (CDK14, Homo sapiens, UniProt O94921)", "read-out": "cell-free assay", "remaining binding [%]": 100}
{"target": "Ephrin type-B receptor 2 (EPHB2, Homo sapiens, UniProt P29323)", "read-out": "cell-free assay", "remaining binding [%]": 100}
{"target": "Tyrosine-protein kinase Lyn (LYN, Homo sapiens, UniProt P07948)", "read-out": "cell-free assay", "remaining binding [%]": 100}
{"target": "Serine/threonine-protein kinase VRK2 (VRK2, Homo sapiens, UniProt Q86Y07)", "read-out": "cell-free assay", "remaining binding [%]": 100}
